Measurements collected from several papers.
Compare with care: the assays were run in different laboratories. Numbers after ± are the reported error.

CCCC[C@H](NC(C)=O)C(=O)N[C@H]1CCC(=O)NC[C@@H](C(=O)N[C@@H](Cc2c[nH]c3ccccc23)C(N)=O)NC(=O)[C@H](CCCNC(=N)N)NC(=O)[C@@H](Cc2ccccc2)NC(=O)[C@H](Cc2c[nH]cn2)NC1=O  AUC(0-t) (CD Sprague-Dawley rat, female, plasma; subcutaneous, 25.0 mg/kg/day, day 14, truncated curve, 3 points): 1710 ng·h/mL
C#C[C@]1(CO)O[C@@H](n2cnc3c(N)nc(F)nc32)C[C@@H]1O  AUC(0-t) (human, plasma; oral, 15 mg, single dose, fasted): 1.41 µM·h
CNc1nc(Nc2ccc(-n3cnc(C)n3)c(OC)c2)nc2c1CC[C@H]2c1ccc(F)cc1  AUC(0-t) (human, plasma; oral, 200 mg, multiple doses, once daily): 31400 ng·h/mL
CSc1cc(C)nc(SC)c1NC(=O)CN1CCN(CCSc2nc3ccccc3[nH]2)CC1.Cl  AUC(0-t) (CD-1 mouse, female, plasma; intranasal, 32.4 µg/10 µL, 7 days repeated): 49.8 ± 6.58 ng·h/mL
Cc1ncsc1-c1ccc(CNC(=O)[C@@H]2C[C@@H](O)CN2C(=O)[C@@H](NC(=O)CCCCCCCCCCNC(=O)O[C@H]2C[C@@H](C)C=C3C=C[C@H](C)[C@H](CC[C@@H]4C[C@@H](O)CC(=O)O4)[C@H]32)C(C)(C)C)cc1  AUC(0-t) (C57BL/6 mouse, plasma; oral, 60 mg/kg, single dose): 5 µM·h
CNCc1ccc(-c2[nH]c3cc(F)cc4c3c2CCNC4=O)cc1  AUC(0-t) (human patients, plasma; oral, 480 mg twice daily, day 1, 12 h, arithmetic mean): 8810 ng·h/mL
CCCCC1(CCCC)CN(c2ccccc2)c2cc(SC)c(OCC(=O)N[C@@H](C(=O)NCC(=O)O)c3ccccc3)cc2S(=O)(=O)C1  AUC(0-t) (human, plasma; oral, 20 mg, no breakfast): 12.8 ng·h/mL
C#Cc1cccc(Nc2ncnc3cc(OCCOC)c(OCCOC)cc23)c1  AUC(0-t) (NOD/SCID mouse, male, whole blood or plasma; oral, 12.5 mg/kg every 12 h, 12 h, day 1): 27000 ± 2570 ng·h/mL

For quick reference, copied from above:
CSc1cc(C)nc(SC)c1NC(=O)CN1CCN(CCSc2nc3ccccc3[nH]2)CC1.Cl  AUC(0-t) (CD-1 mouse, female, plasma; intranasal, 32.4 µg/10 µL, 7 days repeated): 49.8 ± 6.58 ng·h/mL
